Measurements from different studies.
Each line is one published result; not all experiments were run side by side. Several values in a cell are separate wells, animals, samples, runs or records. ± gives the spread as reported.

Structure (SMILES) | assay | system | setting | scale | endpoint | value
CNCc1ccc(-c2cc(=O)c3ccc4[nH]c(C(F)(F)F)nc4c3o2)cc1 |  | ICR mice, brain | intravenous, 2 mg/kg |  | t1/2 | 1.41 h
Cc1nc(N)nc2c1C(=O)N[C@@H](c1ccc(F)cc1-c1cccc(O[11CH3])n1)C2 | ex vivo biodistribution | mice, U87 subcutaneous xenograft, kidneys | 60 min post-injection, baseline, vehicle pre-treatment |  | SUV | 1.6 ± 0.2
CN(CCCO)Cc1ccc(-c2noc(-c3ccc(OCC[18F])c(C(F)(F)F)c3)n2)cc1F |  | Sprague-Dawley rats, male, spleen | 5 min post-injection |  | tissue uptake | 1.9 ± 0.32 %ID/g
C=Cc1c(C)c2cc3nc(c(CC(=O)OCCOCCOCCOC)c4[nH]c(cc5nc(cc1[nH]2)C(C)=C5CC)c(C)c4C(=O)OCCOCCOCCOC)[C@@H](CCC(=O)OCCOCCOCCOC)[C@@H]3C | LC-MS | methanol-water 9:1 | 1 h, pH 2.0 |  | compound loss | 81%
CN([O-])C(=O)CN1CCNCCN(CC(=O)N(C)[O-])CC1.[89Zr+4] |  | mouse, blood | intravenous, 24 h |  | tracer uptake | 0.04 %ID/g
COCC1CN(C2CCN(c3cc(OC)c(Nc4ncc(Br)c(Nc5ccc6c(c5P(C)(C)=O)OCCO6)n4)cc3C)CC2)C1 |  | EGFR-mutant NSCLC patients | oral, 60 mg once daily |  | grade ≥3 treatment-related AEs | 14.3%
CC(C)(C)C(=O)Nc1ccc2[nH]c(CN3CCC(N(CCCN4CCOCC4)CC4OC(n5cnc6c(N)ncnc65)C(O)C4O)CC3)nc2c1 (stereo not shown) |  | male Sprague-Dawley rat, plasma | intravenous, 20 mg/kg, 2 h |  | concentration | 56 ng/mL
C#CCNC(=O)C(CC(C)(C)F)NC(c1ccc(-c2ccc(S(C)(=O)=O)cc2)cc1)C(F)(F)F (stereo not shown) |  | PBS | 100 µM, 23 h, pH 7.45, 37 °C, added: cysteine 10 mM |  | cysteine adduct formation | 0%
C[C@@H](C(=O)O)c1ccc(-c2ccccc2)c(F)c1 | HPLC | solution | concentration not given, 4 h, room temperature |  | relative change of HPLC peak area | 1.14%
O=C(Nc1cnccc1-c1ccc([18F])cc1)c1ccnc(NC(=O)C2CC2)c1 |  | mice, transgenic, GSK-3β, early-stage, feces | intravenous, dose not given, 120 min |  | SUV | 5.53
CN1CCC[C@]1(C)/C=C/S(=O)(=O)NC(=O)Nc1c2c(cc3c1C(O)CC3)CCC2 (stereo partly shown) |  | human, plasma | oral, 50 mg twice daily of parent drug, day 14, metabolite of dosed drug |  | Tmax at second steady-state dose | 4 h
O=C(NS(=O)(=O)c1cccs1)c1cc2ccccc2n1Cc1ccc(Br)c2ccccc12 |  | mouse, plasma | oral, 2 mg/kg |  | MRT(0-inf) | 1.17 h
C=C(NC(=O)c1csc(-c2nc3c(cc2O)-c2nc(cs2)C(=O)NC(C(C)O)C(=O)NC(=C(C)OC)c2nc(cs2)C(=O)NC2c4nc(cs4)C(=O)NC(COC(=O)c4c5c6c(cccc6n4O)COC(=O)C(OC4CC(C)(O)C(N(C)C)C(C)O4)C2OC5)c2nc-3cs2)n1)C(N)=O (stereo not shown) |  | cynomolgus monkey, female, plasma | intravenous infusion, 9 mg/kg single dose |  | clearance | 3.72 mL/min/kg
Cc1ccc(CN2C(=O)/C(=N\c3ccc(Cl)cc3Br)c3ccccc32)cc1 |  | mouse, blood | 150 mg/kg |  | granulocytes | 30.8 ± 15.8%
CCCCN1C(=O)c2cccc3c(NCCCCCCN4CCOCC4)ccc(c23)C1=O |  | toluene |  |  | fluorescence quantum yield | 0.99
COc1cc(-c2cc(=O)c3ccc(OCCCn4c(Cl)nc5ccccc54)cc3o2)cc(OC)c1OC |  | C57BL/J mice, healthy, serum | intravenous, 10 mg/kg every other day, 10 days |  | ALT | 55.1 ± 11.9 U/L
O=C(Nc1cnccc1-c1ccc([18F])nc1)c1ccnc(NC(=O)C2CC2)c1 | ex vivo gamma counting | FVB/NJ mice, both sexes, right kidney | intravenous, 120 min, added: tariquidar 15 mg/kg iv |  | mean SUV | 1.62
O=C(c1ccccc1)N1C(c2ccc(OCC3CCN(CCCF)C3)cc2)c2ccc(O)cc2CC12CC2 (stereo not shown) |  | C57BL/6J mouse, plasma | oral, 25 mg/kg |  | MRT(0-inf) | 2.99 h and 4.48 h
CCNCC#CCNc1ccnc2cc(Cl)ccc12 | measured: compound as metabolite | monkey hepatocytes | 10 µM DAQ, 30 min | higher = more metabolite formed | MS peak area | 3.69e+06 a.u.
C=CC(=O)Nc1cc(Nc2nccc(-c3c[nH]c4ccccc34)n2)c(OC)cc1N(C)CCN(C)C | storage stability | human dried blood spot | 30 d, -80 °C, LLOQ level |  | recovery | 90.2%
CCCC[C@H](NC(=O)CNC(=O)CNC(=O)[C@H](CCCCNC(=O)C(C)c1ccc(CC(C)C)cc1)NC(=O)CN1CCN(CC(=O)O)CCN(CC(=O)O)CCN(CC(=O)O)CC1)C(=O)N[C@H]1CC(=O)NCCCC[C@@H](C(N)=O)NC(=O)[C@H](Cc2c[nH]c3ccccc23)NC(=O)[C@H](CCCNC(=N)N)NC(=O)[C@@H](Cc2ccccc2)NC(=O)[C@H](Cc2c[nH]cn2)NC1=O (stereo partly shown) [lutetium-177 labelled] |  | C57 mice, tumour | 2 h | baseline: blood | tumour-to-tissue ratio | 10.9
C=CC(=O)Nc1cc(Nc2nccc(-c3cn(C4CC4)c4ccccc34)n2)c(OC)cc1N(C)CCNC | autosampler stability | rat plasma | 80 ng/mL, 4 h, 10 °C | baseline: nominal concentration | relative error | -0.9%
COc1ccnc(C(=O)N[C@H]2COC(=O)[C@H](Cc3ccccc3)[C@@H](OC(=O)C(C)C)[C@H](C)OC2=O)c1O | aerobic dark soil incubation | silt loam soil | 20 °C, modelling endpoint |  | DT50 | 19.7 days
COc1cccc(OC)c1-c1cc(C(=O)NC2(C(=O)O)C3CC4CC(C3)CC2C4)nn1-c1ccc(C(=O)N(C)CCOCCOCCN(C)C(=O)[C@H](CCCCNC(=O)[C@H](CC(C)C)NC(=O)C2OC2C(=O)O)NC(=O)CN2CCN(CC(=O)[O-])CCN(CC(=O)[O-])CCN(CC(=O)[O-])CC2)cc1C(C)C.[177Lu+3] (mixture of isomers) |  | mouse, HT-29 xenograft, brain | 24 h post injection |  | tissue uptake | 0.03 %ID/g
Cc1cccc(Cn2ncc3c4cc(F)c(CN(C)C)cc4n(C)c3c2=O)n1 |  | Dutch-belted rabbit, plasma | intravitreal, 100 µM vitreous, 28.00 days |  | plasma concentration | 3.46 ng/mL
C[N+](C)(CCOCCOCCOCCNC(=S)Nc1ccc(C[C@H]2CN(CC(=O)[O-])CCN(CC(=O)[O-])CCN2CC(=O)[O-])cc1)C[c-]1cccc1.[64Cu+2].[Fe+2].c1cc[cH-]c1 | pretargeted biodistribution | nude mouse, BxPC-3 xenograft | 8 h post-radioligand, 72 h lag time |  | tumour uptake | 3.1 ± 0.6 %ID/g
CN[C@H](CC(C)C)C(=O)N[C@H]1C(=O)N[C@@H](CC(N)=O)C(=O)N[C@H]2C(=O)N[C@H]3C(=O)N[C@H](C(=O)N[C@H](C(=O)N[C@H](CCCNC(=N)N)C(N)=O)c4cc(O)cc(O)c4-c4cc3ccc4O)[C@H](O)c3ccc(c(Cl)c3)Oc3cc2cc(c3O[C@@H]2O[C@H](CO)[C@@H](O)[C@H](O)[C@H]2O[C@H]2C[C@](C)(N)[C@H](O)[C@H](C)O2)Oc2ccc(cc2Cl)[C@H]1O |  | female CD-1 mouse, plasma | intravenous, 15 mg/kg, single dose |  | Cmax | 36700 ng/mL
O=S(=O)(NCc1ccncc1)c1ccc(C2CCCCC2)cc1 |  | CK mouse (male) | intraperitoneal, 1.0 mg/kg daily, 2 weeks |  | PU.1-positive cell count | decreased

Excerpt of the above:
Structure (SMILES) | assay | system | setting | scale | endpoint | value
CNCc1ccc(-c2cc(=O)c3ccc4[nH]c(C(F)(F)F)nc4c3o2)cc1 |  | ICR mice, brain | intravenous, 2 mg/kg |  | t1/2 | 1.41 h
Cc1nc(N)nc2c1C(=O)N[C@@H](c1ccc(F)cc1-c1cccc(O[11CH3])n1)C2 | ex vivo biodistribution | mice, U87 subcutaneous xenograft, kidneys | 60 min post-injection, baseline, vehicle pre-treatment |  | SUV | 1.6 ± 0.2
CN(CCCO)Cc1ccc(-c2noc(-c3ccc(OCC[18F])c(C(F)(F)F)c3)n2)cc1F |  | Sprague-Dawley rats, male, spleen | 5 min post-injection |  | tissue uptake | 1.9 ± 0.32 %ID/g
C=Cc1c(C)c2cc3nc(c(CC(=O)OCCOCCOCCOC)c4[nH]c(cc5nc(cc1[nH]2)C(C)=C5CC)c(C)c4C(=O)OCCOCCOCCOC)[C@@H](CCC(=O)OCCOCCOCCOC)[C@@H]3C | LC-MS | methanol-water 9:1 | 1 h, pH 2.0 |  | compound loss | 81%
